Measurements collected from several papers.
Parts stem from different laboratories: compare values within a part only. Substitutions count along the parent as printed.

Block 1 — target: CCNA2, cyclin fold, Cln2 fusion (human); method: yeast growth competition, sequencing; matrix: yeast; setting: strong parent motif; reference: not given; direction: higher = stronger binding
Parent: DBF4B docking peptide (human); LGYLYLLLTQSLW
Substitution | normalised enrichment score
Y5A | 1.65
Q10A | 1.82
Y3A | 1.5
T9A | 1.73
L4A | 1.3
W13A | 1.08

Block 2 — method: EMSA with sequencing; form: double-stranded DNA, one strand shown; matrix: in vitro; tested at: 10 and 20 nM; reference: negative control set to 0; direction: higher = stronger binding
Target: Hepatocyte nuclear factor 3-alpha (Foxa1, Mus musculus, UniProt P35582, residues 1-468, full length assumed)
Setting: whole designed probe, mean of two concentrations, ends assumed
Construct (chain): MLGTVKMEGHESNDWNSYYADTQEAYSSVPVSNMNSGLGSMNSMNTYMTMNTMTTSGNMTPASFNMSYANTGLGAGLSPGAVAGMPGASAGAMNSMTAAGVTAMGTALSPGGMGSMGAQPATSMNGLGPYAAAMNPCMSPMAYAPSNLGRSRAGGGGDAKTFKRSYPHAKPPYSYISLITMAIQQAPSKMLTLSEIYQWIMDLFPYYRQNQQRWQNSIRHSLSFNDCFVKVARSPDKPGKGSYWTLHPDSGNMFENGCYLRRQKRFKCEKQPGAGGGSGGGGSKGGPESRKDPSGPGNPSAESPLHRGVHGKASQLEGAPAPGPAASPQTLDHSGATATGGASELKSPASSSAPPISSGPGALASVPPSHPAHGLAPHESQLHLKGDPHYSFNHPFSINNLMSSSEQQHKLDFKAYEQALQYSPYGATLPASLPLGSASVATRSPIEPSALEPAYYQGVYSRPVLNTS
Sequence | normalised bound fraction
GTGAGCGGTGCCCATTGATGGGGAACGGGAATTTTTATATAATACCAACTAATGAGTGTAAAACAAAGAAACAAAAAGAAACCAGTCCACAGAAACCAGAGTTGAGGCATGTGACTCAGAGATGACTCTCAAGGTGATTACCCTGTGAAACTATGTACTGTTCTTGCATAACAATTTTTGGAATCTTTTGCTTTGAAATGCCTTCAGAATCAGTTCATGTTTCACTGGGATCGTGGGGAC | 0.0167 ratio
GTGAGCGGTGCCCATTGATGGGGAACCATTAGAGTCAAAGTTGTTAAGGGGAGCTAGTCATAGCTACCACGTGGCCAGGCATGTGGAACCAGACACATGAATCATCACAGGCACACATCTATTTACTTTAAATAATGCTGACAACCTAGTTCATAGTGACACACTACTTGAGATATATAGAATAACATTATTACCCAGTAAGTATGTGAACATTCCGATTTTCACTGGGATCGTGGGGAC | 0.39 ratio
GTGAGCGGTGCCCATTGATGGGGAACATCTTCCCCCTCTTCCTTGCCCCACCAGCTCACCTTCCCGGGTTATTTGCAGATAGGAAAATAAATAAAGCCGGCATTCGTTAACGCAGTTCACGCGCATACTGCTGTTTGCTCTGGATGAATCATGGTCCTTTGGCGAGGCGTGGCTCCGGGAGAGCAAAGCACCGTGTCAGGGCCATGATCCGGGGTGGCCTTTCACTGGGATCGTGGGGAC | 0.344 ratio
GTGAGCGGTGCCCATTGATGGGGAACTAAAATGGAAGCATGCAAGTTTAGATTGAAAGAGAAAATATAAGCTTCAAAAACTCTTTAGTTCTACATTTTACAAAAGTAAACATTTTACAAAGTAAACATAAAGTAAACATTATGATAGTAATTACTATCATACCACAGGTATAAACAGTAACTTGGAAAAATTTTCCCTTTTAAGACCTTGCATAAAACATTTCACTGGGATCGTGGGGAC | 0.535 ratio
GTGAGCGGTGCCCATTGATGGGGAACATCTTCCCCCTCTTCCTTGCCCCACCAGCTCACCTACGGGGGTTATTTGCAGATAGGAAAATAAATAAAGCCGGCATTCGTTAACCCTCTTCTGGCGCAAACTGCTGTTTGCTCTGCATGAATCATGGTCCTTACGCGACGCCAGGCTCCGGGAGAGCAAAGCACCGTGTCAGGCGCATGATCCGGGCTCGCCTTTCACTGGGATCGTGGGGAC | 0.345 ratio

Block 3 — method: protein-binding microarray; form: double-stranded DNA, one strand shown; matrix: in vitro; tested at: 2540 nM top; setting: 60-bp whole probe; with: salmon DNA 0.4 mg/ml; reference: random background probes; direction: higher = stronger binding; all sequences stand within: GCCTAGCAC … GTCTTGATTCGCTTGACGCTGCTG
Target: Interferon regulatory factor 3, full length, phosphomimetic (IRF3, Homo sapiens, UniProt Q14653, residues 1-427, S386D/S396D/S398D/S402D/T404D/S405D)
UniProt Q14653, sequence (whole entry, unmodified, looked up): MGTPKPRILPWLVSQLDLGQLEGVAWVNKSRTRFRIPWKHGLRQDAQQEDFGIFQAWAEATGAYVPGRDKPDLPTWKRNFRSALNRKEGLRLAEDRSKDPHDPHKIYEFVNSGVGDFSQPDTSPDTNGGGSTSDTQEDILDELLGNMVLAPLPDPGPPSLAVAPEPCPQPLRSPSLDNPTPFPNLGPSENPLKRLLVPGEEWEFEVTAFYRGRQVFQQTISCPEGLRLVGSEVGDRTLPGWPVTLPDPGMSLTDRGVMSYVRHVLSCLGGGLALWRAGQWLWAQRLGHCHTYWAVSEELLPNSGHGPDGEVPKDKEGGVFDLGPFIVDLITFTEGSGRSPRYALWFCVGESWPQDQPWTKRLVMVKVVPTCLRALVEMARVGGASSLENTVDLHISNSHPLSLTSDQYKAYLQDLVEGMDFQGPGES
Sequence | fitted relative affinity
GACGGTCTCCTTATCCTTACGTGCTAG | 2.92 z-score
ACTAATTTTCAATTCCTGAAGTGCTAG | 1.58 z-score
CTTACTTCCCAATTGTCTTTGTGCTAG | 2.79 z-score
GACGGTCTCGGACTGGGGATGTGCTAG | -0.00987 z-score
TTAGGTACCGGTCTCGGTTAGTGCTAG | 2.4 z-score
GACGGTTTCGGGACTGGGAACGTGCTA | 4.91 z-score
TCAACACTAGTTTTCATACTGTGCTAG | 1.69 z-score
TTAGACCTCAGTATCGATTAGTGCTAG | 0.336 z-score
GACCATTTCAGTTCCGAGACGTGCTAG | 3.18 z-score
GACGGACTGGACACAGGGGACGTGCTA | -0.429 z-score

Other studies, line by line
Substance | target | assay | system | conditions | scale | quantity | value
PhoQ, residues 284 288 289 292 302 303 SCKMEA | PhoP, residues 12 14 15 18 19 TPLRH (Escherichia coli, UniProt P23836) | Sort-seq, measured: YFP reporter | E. coli | PhoQ-PhoP variant library, with: 10 µM Mg2+ | reference: high Mg2+ state, higher = stronger signaling | fold induction | 11.6

For quick reference, copied from above (block 2):
Sequence | normalised bound fraction
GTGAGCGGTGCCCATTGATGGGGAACCATTAGAGTCAAAGTTGTTAAGGGGAGCTAGTCATAGCTACCACGTGGCCAGGCATGTGGAACCAGACACATGAATCATCACAGGCACACATCTATTTACTTTAAATAATGCTGACAACCTAGTTCATAGTGACACACTACTTGAGATATATAGAATAACATTATTACCCAGTAAGTATGTGAACATTCCGATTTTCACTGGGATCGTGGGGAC | 0.39 ratio
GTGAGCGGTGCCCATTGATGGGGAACATCTTCCCCCTCTTCCTTGCCCCACCAGCTCACCTTCCCGGGTTATTTGCAGATAGGAAAATAAATAAAGCCGGCATTCGTTAACGCAGTTCACGCGCATACTGCTGTTTGCTCTGGATGAATCATGGTCCTTTGGCGAGGCGTGGCTCCGGGAGAGCAAAGCACCGTGTCAGGGCCATGATCCGGGGTGGCCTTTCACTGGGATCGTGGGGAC | 0.344 ratio
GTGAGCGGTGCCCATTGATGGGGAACGGGAATTTTTATATAATACCAACTAATGAGTGTAAAACAAAGAAACAAAAAGAAACCAGTCCACAGAAACCAGAGTTGAGGCATGTGACTCAGAGATGACTCTCAAGGTGATTACCCTGTGAAACTATGTACTGTTCTTGCATAACAATTTTTGGAATCTTTTGCTTTGAAATGCCTTCAGAATCAGTTCATGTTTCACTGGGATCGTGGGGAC | 0.0167 ratio
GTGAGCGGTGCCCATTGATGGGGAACATCTTCCCCCTCTTCCTTGCCCCACCAGCTCACCTACGGGGGTTATTTGCAGATAGGAAAATAAATAAAGCCGGCATTCGTTAACCCTCTTCTGGCGCAAACTGCTGTTTGCTCTGCATGAATCATGGTCCTTACGCGACGCCAGGCTCCGGGAGAGCAAAGCACCGTGTCAGGCGCATGATCCGGGCTCGCCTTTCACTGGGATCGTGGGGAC | 0.345 ratio
